Measured values from different studies.
Each numbered part is a random draw from the data of one study; scales do not carry over between parts. Substitutions count along the parent as printed.

Series 1 — technique: RNA Bind-n-Seq; molecule type: RNA; matrix: in vitro; tested at: not given; baseline: input RNA pool; reading: higher = stronger binding
Target: RING finger protein unkempt homolog, zinc fingers 1-6, GST-SBP tag (UNK, Homo sapiens, UniProt Q9C0B0, residues 30-357)
Chain of UniProt Q9C0B0 (30-357, looked up): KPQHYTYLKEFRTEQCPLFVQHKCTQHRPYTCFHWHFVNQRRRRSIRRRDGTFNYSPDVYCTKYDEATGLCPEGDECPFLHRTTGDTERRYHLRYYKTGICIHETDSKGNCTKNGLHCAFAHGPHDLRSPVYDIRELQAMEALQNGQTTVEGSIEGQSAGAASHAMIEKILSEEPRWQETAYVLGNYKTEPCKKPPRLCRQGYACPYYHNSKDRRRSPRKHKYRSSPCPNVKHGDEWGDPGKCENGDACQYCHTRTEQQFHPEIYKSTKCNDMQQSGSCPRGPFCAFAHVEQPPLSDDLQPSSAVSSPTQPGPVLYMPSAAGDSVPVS
Notes: RNA with constant flanks, human and mouse sites, ends assumed
Shared flanks, not repeated: GGGAGUUCUACAGUCCGACGAUC … CAACAGAGGAUUGAGCAUCA
| Strand | bound/input enrichment [ratio] |
| --- | --- |
| GAAAGAACUGUUCCAAGAAUAUUUGUCAAUGGUACUUUUAUUGGAGGUGCAACUGACACUCAUAGGCUUCACAAAGAAGGAAAAUUGCUCCCACUAGUUCAUCAGUGUUAUUUAAAAAAA | 8.36 |
| GGCUGUGGAAUUAGUCCAGAGAUUCAUUGCGAUGGUGGCCACACCUUCAGACCGCCUUCUGUUAGUAACUACUGCAUCUGUGACAUUACAAAUGGCAAUCACAGUGUGGAUGAGAUGCAA | 0.118 |
| UACAUCUUCCGCGUGCUGCUGCAGGUGUUCCUGGAAUGCUGCAUUUACUGGGUAGGAUUCGCUUUUCGAAAUCCUCCAGGGACACAGCCCAUUGCGAGAAGUGAGGUGUUCAGGUACUCC | 0.125 |
| ACCAUCUAUUCUGCAACCAAGACUUUUGUAGAUUUCUUCUCUCAGUGCCUCCAUGAGGAGUAUAGGAGCAAGGGCGUCUUUGUGCAGAGUGUCCUGCCAUACUUCGUAGCUACAAAACUG | 0.254 |
| CUCAGGAGAAGGCAUGUUUAGAAGACCAUCAGAAGGACAGUCCCUCAUCAGUUACCUCUCUGAGCAAGACUUUGGCAGCUGUGCAGACCUGGAAAAGGAAAACGCCCACUUCAGCAUCUC | 0.16 |
| AAGAGGAAGAAGGUUAAGUUGGCUGUGCUGAAAUACUAUAAGGUGGAUGAAAAUGGCAAAAUUAGCCGACUUCGUCGAGAGUGUCCUUCUGAUGAAUGUGGUGCUGGAGUUUUCAUGGGA | 0.249 |
| GCAGGACGGGGAGGGACUGCGGCGGAGAUACCGGUCCCCGGGCAAAAGCAGGGACCGCGGUUUAGCUUCCAACGCGUGCUCUCUGGGCGGGGUGCGGCGGGGGAUGUGCCUGCCCAGUCC | 0.45 |
| CCUGAACUUUUAGCUUUCAAGUUGUGGCUGUUUUUUGUUUUUGUUUUUGUUUUUGUUUUCUUUAGAAUUUUUCCCUGUUUCCCACCUUCUCUUCCCCUGUUGCCAAGGUCUAACUCAUGG | 5.7 |
| GGAGACUCAACAGCAAGAAUAUGGAAUCUUAGUGAGAACAGCACCAGUGGCUCUACACAGUUAGUACUUAGACAUUGUAUACGAGAAGGAGGGCAAGAUGUUCCAAGCAACAAGGAUGUC | 2 |
| AUCGCUCAAGAGUACUAUUUAGAACUGAAGGAUGUAAAUUCCCUUCUCAAAUAUUUUGUUACUUUUGAAGUCAAAAUCUUACCUCCAGAAGACAGGAAAGCAAUACAAUCAAAAUGAAGA | 0.186 |
| UUAGAAAAUACAUUUGAAGGUCAUAAAAGUAAAAACAAGGAAGAUUGCGAUGAACGUGACUUACUUACUGUCAACCGGAAAAUAAAAAUAUCUAACCUUGAAAAGGAACAAAUGCUCACC | 0.524 |

Series 2 — technique: RNA Bind-n-Seq; molecule type: RNA; matrix: in vitro; tested at: 200 nM; notes: whole 134-nt RNA, ends assumed; added: 150 mM KCl; baseline: input library; reading: higher = stronger binding
Target: Ras GTPase-activating protein-binding protein 1, full length (G3BP1, Homo sapiens, UniProt Q13283)
Chain of UniProt Q13283 (whole entry, looked up): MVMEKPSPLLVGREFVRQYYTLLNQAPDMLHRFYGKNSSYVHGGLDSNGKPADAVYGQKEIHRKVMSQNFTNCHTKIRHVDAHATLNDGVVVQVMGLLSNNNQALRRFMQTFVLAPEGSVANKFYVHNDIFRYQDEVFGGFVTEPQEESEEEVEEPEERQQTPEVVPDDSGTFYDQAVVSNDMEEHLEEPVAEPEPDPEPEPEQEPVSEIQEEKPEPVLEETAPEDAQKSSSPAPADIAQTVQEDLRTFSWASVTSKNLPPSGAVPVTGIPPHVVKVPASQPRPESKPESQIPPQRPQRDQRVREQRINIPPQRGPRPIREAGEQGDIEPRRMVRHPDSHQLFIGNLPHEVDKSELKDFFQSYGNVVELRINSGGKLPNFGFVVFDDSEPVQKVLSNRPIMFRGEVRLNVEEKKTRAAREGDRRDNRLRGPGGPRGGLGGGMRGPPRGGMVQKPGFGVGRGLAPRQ
Shared flanks, not repeated: GGGAGUUCUACAGUCCGACGAUC … UGGAAUUCUCGGGUGUCAAGG
| Strand | log2 enrichment |
| --- | --- |
| AGUCCUGUGCUACACAUCGUAUGUACCGAAUCAAACCCAAACCCAAACCCCCCCAAAAAAGUAUUAUGUUACGCCGUUCGGAUCUGCACU | -0.569 |
| GAUCUCCGGGCUCAGUUGCAGAUUCUGGCCAACAUGGACAGCCAGCUAAAAGAGCUACAGAGUCAGCAUACCCAUUGUGCCCAGGACCUG | -1.28 |
| UCAAGUCCUGUGCUACACAUCGUAUGUACCGAAUCGGAAAAAGGAAAGGAAAGGAAAGUAUUAUGUUACGCCGUUCGGAUCUGCACUUCC | -1.36 |
| UAACUUUAGAGGAGGAUCUGAUGGAUAUGGCAGUGGACGUGGAUUUGGGGAUGGCUAUAAUGGGUAUGGAGGAGGACCUGGAGGUGGCAG | 0.34 |
| GUCCUGUGCUACACAUCGUAUGUACCGAAUCGGGGCCCCGGGGCCCCGGGGCCCCGGGAAAGUAUUAUGUUACGCCGUUCGGAUCUGCAC | -0.629 |
| CUGUGCUACACAUCGUAUGUACCGAAUCGGGGUUUUUGGGGUUUUUGGGGAAAAAAAGGGGAAAGUAUUAUGUUACGCCGUUCGGAUCUG | -0.323 |
| UCAAGUCCUGUGCUACACAUCGUAUGUACCGAAUCGGGUGGGAGGGAAAAAGGGAAAGUAUUAUGUUACGCCGUUCGGAUCUGCACUUCC | 0.907 |
| UGGCCCUGGUGGCAUUCGGGGAGGAAGAGGUGGCCUCAUGGAUCGUGGUGGUCCCGGUGGAAUGUUCAGAGGUGGCCGUGGUGGAGACAG | 0.3 |
| GCAGGAGGUAAAAACAAAUGGAAAUGCUUCGGAUAGUGGCAGGGGUGGGGGUUGCUAAGGAAAGGGUGGGAUGGGAGUGGGUAAAGAGUU | 0.944 |
| GUGAAUCAAAAACUCUGGUUUUAAGCAACCUCUCCUACAGUGCAACAGAAGAAACUCUUCAGGAAGUAUUUGAGAAAGCAACUUUUAUCA | 0.975 |
| CCUCAAGUCCUGUGCUACACAUCGUAUGUACCGAAUCGGGAGGGAGGGGAGGAAAGUAUUAUGUUACGCCGUUCGGAUCUGCACUUCCAG | 1.12 |
| CACAGACAACACGCACCCACAGAGACACAGAGGGAAGGGGUUGGGAUGGGGACAGGGUGCACAGCAGGGCGGGGUAGGACCCCAGCCCCU | 2 |
| CUCAAGUCCUGUGCUACACAUCGUAUGUACCGAAUCGGGUUUGGGAGGGUGGGAAAGUAUUAUGUUACGCCGUUCGGAUCUGCACUUCCA | 1.18 |
| GUCCUGUGCUACACAUCGUAUGUACCGAAUCGGGGUUUGGGGAGGGGUUUUUUUGGGGAAAGUAUUAUGUUACGCCGUUCGGAUCUGCAC | 0.325 |

Series 3 — target: CRIPT, C-terminal peptide; technique: DHFR complementation, deep sequencing; matrix: yeast; baseline: wild type; reading: higher = weaker binding
Notes: single substitutions, model-inferred values
Starting sequence: ERBIN, PDZ domain 1 (human); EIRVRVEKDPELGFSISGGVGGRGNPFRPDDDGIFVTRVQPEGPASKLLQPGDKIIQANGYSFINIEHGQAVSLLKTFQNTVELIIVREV; partner TKNYKQTSV
| Change | binding free energy change |
| --- | --- |
| V36M | 0.522 kcal/mol |
| L74Y | -0.0534 kcal/mol |
| E1I | 0.324 kcal/mol |
| T37F | 0.589 kcal/mol |
| L49S | 0.596 kcal/mol |
| G60V | 0.239 kcal/mol |
| S17D | 1.51 kcal/mol |
| K8D | 1.36 kcal/mol |
| V90P | 0.129 kcal/mol |
| A58W | 2.18 kcal/mol |
| E89N | 0.00665 kcal/mol |
| R23I | 0.375 kcal/mol |
| Y61E | -0.0617 kcal/mol |
| G69N | -0.16 kcal/mol |
| E67F | 0.271 kcal/mol |
| G18Y | 1.05 kcal/mol |
| G22I | 0.305 kcal/mol |
| V6T | 1.33 kcal/mol |
| Q70H | 0.022 kcal/mol |
| G19T | 1.3 kcal/mol |
| G19V | 1.01 kcal/mol |
| D31N | 0.587 kcal/mol |

Series 4 — target: CREBZF, bZIP domain (human); technique: DHFR protein complementation; matrix: yeast; baseline: wild-type JUN-FOS pair; reading: higher = stronger binding
Notes: single substitutions, most at no-binding floor
Starting sequence: JUN, bZIP domain (human); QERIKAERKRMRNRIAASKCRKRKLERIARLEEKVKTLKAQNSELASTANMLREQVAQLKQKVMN; partner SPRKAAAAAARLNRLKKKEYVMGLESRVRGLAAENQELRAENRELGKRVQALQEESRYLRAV
| Change | binding fitness |
| --- | --- |
| S47Y | -1.5 natural log |
| R30W | -1.5 natural log |
| K34W | -1.54 natural log |
| L31F | -1.5 natural log |
| A29C | -1.45 natural log |
| K39R | -1.3 natural log |
| E44A | -1.53 natural log |
| Q41L | -1.43 natural log |
| K34C | -1.51 natural log |
| A40E | -1.58 natural log |
| Q41W | -1.39 natural log |
| T48F | -1.53 natural log |
| A29G | -1.39 natural log |
| A57G | -1.49 natural log |

Series 5 — target: CCNB1, cyclin fold, Cln2 fusion (human); technique: yeast growth competition, sequencing; matrix: yeast; notes: weak parent motif; baseline: not given; reading: higher = stronger binding
Starting sequence: SLBP docking peptide (human); ARYKRKLLINDFG
| Change | normalised enrichment score |
| --- | --- |
| AAYKRKLLINDFG [R2A] | 0.44 |
| ARYKRKLLTNDFG [I9T] | 1.34 |
| ARYKRKLLINNFG [D11N] | 0.277 |
| ARYKRKLLIKDFG [N10K] | 0.2 |
| ARYKRKLPINDFG [L8P] | 0.711 |
| ARYKRKLLINRFG [D11R] | 0.388 |
| ARYKRKLLINDFE [G13E] | 0.819 |
| ARYKRKLLINDYG [F12Y] | 1.4 |
| ARYKRKLLYNDFG [I9Y] | 0.572 |
| ARYKRKLLINDPG [F12P] | 0.637 |
| ARYKRKLLKNDFG [I9K] | 1.51 |
| ARYKRFLLINDFG [K6F] | 0.509 |
| ARYKCKLLINDFG [R5C] | 1.32 |
| ARYKRVLLINDFG [K6V] | 0.675 |
| ARYKRKLLINVFG [D11V] | 0.408 |
| ARYKRKLLINDKG [F12K] | 0.915 |
| ARYKRKLLINLFG [D11L] | 0.854 |
| ARYKWKLLINDFG [R5W] | -0.76 |

Mixed results
| Substance | target | assay | system | conditions | how to read | endpoint | result |
| --- | --- | --- | --- | --- | --- | --- | --- |
| PhoQ, residues 284 288 289 292 302 303 SIHMAM | PhoP, residues 12 14 15 18 19 AQALL (Escherichia coli, UniProt P23836) | Sort-seq, refers to: YFP reporter | E. coli | PhoQ-PhoP variant library, added: 10 µM Mg2+ | baseline: high Mg2+ state, higher = stronger signaling | fold induction | 10.3 |
| GGAGTGCGCACTCC (dsDNA) | KAT6A 1-85 (Homo sapiens, UniProt Q92794) | X-ray crystallography | double-stranded DNA, one strand shown |  |  | binding | binds |

Excerpt of the above (series 2):
| Strand | log2 enrichment |
| --- | --- |
| CACAGACAACACGCACCCACAGAGACACAGAGGGAAGGGGUUGGGAUGGGGACAGGGUGCACAGCAGGGCGGGGUAGGACCCCAGCCCCU | 2 |
| GCAGGAGGUAAAAACAAAUGGAAAUGCUUCGGAUAGUGGCAGGGGUGGGGGUUGCUAAGGAAAGGGUGGGAUGGGAGUGGGUAAAGAGUU | 0.944 |
| CCUCAAGUCCUGUGCUACACAUCGUAUGUACCGAAUCGGGAGGGAGGGGAGGAAAGUAUUAUGUUACGCCGUUCGGAUCUGCACUUCCAG | 1.12 |
| UAACUUUAGAGGAGGAUCUGAUGGAUAUGGCAGUGGACGUGGAUUUGGGGAUGGCUAUAAUGGGUAUGGAGGAGGACCUGGAGGUGGCAG | 0.34 |
